Published values pooled from the literature.
Numbered parts are unrelated; each lists some results of a single study.
Chain of UniProt Q99683 (whole entry, looked up): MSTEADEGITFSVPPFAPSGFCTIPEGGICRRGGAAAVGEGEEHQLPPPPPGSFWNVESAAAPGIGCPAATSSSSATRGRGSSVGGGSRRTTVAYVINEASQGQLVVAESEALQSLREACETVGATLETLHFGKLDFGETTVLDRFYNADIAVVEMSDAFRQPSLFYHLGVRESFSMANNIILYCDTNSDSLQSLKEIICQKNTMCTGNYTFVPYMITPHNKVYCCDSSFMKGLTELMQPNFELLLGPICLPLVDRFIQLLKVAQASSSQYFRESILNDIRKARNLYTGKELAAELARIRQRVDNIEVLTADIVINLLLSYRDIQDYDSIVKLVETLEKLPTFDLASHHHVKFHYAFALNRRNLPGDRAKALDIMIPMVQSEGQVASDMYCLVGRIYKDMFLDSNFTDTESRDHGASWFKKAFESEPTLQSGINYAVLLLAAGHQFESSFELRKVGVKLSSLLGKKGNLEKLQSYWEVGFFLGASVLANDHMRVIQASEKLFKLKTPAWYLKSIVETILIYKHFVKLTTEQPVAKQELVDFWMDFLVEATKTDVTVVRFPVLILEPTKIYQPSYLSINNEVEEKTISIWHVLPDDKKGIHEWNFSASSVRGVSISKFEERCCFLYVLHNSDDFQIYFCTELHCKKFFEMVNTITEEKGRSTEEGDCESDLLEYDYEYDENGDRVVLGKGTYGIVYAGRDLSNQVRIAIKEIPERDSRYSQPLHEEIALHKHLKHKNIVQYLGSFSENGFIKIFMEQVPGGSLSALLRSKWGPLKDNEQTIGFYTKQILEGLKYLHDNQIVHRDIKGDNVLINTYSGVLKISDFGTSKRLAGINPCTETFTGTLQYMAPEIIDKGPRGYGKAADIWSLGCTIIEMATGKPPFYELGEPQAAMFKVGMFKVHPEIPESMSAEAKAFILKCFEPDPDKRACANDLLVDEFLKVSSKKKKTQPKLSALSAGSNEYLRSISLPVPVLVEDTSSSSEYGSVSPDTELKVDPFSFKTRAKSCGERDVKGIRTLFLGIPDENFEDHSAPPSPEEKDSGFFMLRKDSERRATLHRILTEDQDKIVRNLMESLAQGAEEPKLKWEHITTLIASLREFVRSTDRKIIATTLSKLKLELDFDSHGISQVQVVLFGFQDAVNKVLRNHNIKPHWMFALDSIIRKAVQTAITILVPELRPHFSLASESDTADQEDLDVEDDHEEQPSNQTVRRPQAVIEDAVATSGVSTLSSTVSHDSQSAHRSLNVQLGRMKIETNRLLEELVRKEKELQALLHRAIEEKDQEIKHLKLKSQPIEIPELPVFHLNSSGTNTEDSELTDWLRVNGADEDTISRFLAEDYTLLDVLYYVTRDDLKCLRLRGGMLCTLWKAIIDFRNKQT
Chain of UniProt Q15375 (whole entry, looked up): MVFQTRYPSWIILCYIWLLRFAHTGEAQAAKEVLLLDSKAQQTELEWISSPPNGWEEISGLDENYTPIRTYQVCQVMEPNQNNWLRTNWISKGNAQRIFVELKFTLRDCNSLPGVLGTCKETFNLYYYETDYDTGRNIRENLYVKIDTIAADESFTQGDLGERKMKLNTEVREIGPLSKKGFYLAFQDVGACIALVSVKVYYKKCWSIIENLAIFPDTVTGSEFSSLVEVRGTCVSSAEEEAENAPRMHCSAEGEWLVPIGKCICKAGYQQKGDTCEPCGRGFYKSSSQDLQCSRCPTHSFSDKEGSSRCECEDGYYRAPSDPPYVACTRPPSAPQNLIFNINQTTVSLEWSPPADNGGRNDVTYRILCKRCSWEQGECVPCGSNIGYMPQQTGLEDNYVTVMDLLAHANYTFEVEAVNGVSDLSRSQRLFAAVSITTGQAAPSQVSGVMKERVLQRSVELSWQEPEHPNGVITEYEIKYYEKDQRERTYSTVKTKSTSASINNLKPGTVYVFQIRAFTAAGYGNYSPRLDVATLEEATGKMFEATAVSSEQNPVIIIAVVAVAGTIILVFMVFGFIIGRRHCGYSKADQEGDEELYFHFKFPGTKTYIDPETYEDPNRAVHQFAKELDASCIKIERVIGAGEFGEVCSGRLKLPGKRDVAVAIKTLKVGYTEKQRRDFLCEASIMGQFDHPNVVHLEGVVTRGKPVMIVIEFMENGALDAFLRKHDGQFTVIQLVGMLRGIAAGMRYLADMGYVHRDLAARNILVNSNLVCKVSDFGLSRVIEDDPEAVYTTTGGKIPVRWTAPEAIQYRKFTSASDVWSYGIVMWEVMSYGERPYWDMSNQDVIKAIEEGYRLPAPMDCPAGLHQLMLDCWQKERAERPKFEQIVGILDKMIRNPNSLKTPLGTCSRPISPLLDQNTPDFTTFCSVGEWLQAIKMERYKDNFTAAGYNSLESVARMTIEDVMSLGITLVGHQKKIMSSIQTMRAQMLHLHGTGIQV
Chain of UniProt P06239 (whole entry, looked up): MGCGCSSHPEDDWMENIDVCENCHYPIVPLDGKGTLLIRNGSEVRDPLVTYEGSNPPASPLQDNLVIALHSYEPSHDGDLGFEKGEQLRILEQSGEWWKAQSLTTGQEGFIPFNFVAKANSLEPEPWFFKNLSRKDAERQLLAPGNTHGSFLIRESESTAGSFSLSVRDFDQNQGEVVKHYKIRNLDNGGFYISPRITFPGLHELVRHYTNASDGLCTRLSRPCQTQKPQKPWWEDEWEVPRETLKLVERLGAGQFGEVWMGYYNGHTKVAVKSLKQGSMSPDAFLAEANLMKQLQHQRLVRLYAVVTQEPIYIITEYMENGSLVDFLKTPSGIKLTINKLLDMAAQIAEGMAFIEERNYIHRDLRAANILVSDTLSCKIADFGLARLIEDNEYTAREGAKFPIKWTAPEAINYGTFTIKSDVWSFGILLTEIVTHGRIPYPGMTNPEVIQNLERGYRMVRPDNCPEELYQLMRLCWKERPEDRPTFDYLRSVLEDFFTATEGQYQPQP
Chain of UniProt Q9Y243 (whole entry, looked up): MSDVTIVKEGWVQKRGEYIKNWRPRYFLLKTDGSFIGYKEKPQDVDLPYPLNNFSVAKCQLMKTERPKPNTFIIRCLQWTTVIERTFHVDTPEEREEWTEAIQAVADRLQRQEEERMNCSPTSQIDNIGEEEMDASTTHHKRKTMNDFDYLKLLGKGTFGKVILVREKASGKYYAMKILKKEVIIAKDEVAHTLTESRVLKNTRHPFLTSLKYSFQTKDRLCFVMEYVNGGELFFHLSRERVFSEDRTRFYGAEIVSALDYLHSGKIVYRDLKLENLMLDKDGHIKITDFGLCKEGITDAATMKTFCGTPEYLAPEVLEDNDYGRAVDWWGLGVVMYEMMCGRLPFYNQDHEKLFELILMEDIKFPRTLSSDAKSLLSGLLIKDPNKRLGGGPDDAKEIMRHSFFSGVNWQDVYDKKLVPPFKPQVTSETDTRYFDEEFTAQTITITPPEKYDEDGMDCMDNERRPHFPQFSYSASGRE
Chain of UniProt Q04912 (whole entry, looked up): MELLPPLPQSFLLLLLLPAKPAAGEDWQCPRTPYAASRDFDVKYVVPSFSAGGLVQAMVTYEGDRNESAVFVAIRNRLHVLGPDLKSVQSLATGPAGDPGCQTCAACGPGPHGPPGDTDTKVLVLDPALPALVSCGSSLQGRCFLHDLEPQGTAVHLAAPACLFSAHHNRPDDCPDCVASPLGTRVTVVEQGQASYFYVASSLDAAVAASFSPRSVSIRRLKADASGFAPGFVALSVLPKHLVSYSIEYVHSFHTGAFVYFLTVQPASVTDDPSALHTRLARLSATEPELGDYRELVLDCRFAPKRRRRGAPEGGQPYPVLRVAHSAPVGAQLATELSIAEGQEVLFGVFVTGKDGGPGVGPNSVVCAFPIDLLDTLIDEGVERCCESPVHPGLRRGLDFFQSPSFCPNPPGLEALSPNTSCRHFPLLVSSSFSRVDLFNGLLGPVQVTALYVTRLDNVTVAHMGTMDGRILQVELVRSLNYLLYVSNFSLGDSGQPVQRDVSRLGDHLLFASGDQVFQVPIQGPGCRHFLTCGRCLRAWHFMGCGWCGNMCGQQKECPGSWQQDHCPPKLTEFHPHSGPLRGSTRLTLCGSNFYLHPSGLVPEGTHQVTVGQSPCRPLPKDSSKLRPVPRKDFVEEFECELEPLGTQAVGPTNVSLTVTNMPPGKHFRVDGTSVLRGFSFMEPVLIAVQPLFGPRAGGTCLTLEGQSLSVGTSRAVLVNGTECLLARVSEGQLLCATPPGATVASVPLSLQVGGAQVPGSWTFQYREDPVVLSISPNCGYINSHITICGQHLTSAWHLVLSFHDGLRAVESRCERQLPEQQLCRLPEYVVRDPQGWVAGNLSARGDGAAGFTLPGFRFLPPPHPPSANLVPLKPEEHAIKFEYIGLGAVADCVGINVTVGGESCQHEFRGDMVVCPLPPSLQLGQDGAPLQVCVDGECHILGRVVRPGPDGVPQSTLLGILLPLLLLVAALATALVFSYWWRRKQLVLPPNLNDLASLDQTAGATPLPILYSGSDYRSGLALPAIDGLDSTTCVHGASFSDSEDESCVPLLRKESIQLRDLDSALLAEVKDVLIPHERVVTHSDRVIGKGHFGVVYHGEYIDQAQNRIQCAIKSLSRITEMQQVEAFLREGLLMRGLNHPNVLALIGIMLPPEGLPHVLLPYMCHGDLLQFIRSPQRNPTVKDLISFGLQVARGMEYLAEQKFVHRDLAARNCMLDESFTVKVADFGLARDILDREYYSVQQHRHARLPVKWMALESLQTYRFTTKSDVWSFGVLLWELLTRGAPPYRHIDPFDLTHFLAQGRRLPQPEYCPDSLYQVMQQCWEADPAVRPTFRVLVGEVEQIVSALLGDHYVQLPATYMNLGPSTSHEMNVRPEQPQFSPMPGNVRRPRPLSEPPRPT

Sample 1 — effect on: cell-free assay; tested at: 1 µM
SMILES: C[C@H]1CC[C@H](n2c3cnccc3c3cnc(Nc4ccc5c(n4)CCN(C(=O)CO)C5)nc32)CC1
target	remaining signal [%]
RAC-gamma serine/threonine-protein kinase (AKT3, Homo sapiens, UniProt Q9Y243)	100
Epidermal growth factor receptor (EGFR, Homo sapiens, UniProt P00533, G719S)	91
Proto-oncogene tyrosine-protein kinase receptor Ret (RET, Homo sapiens, UniProt P07949, M918T)	23
Serine/threonine-protein kinase LATS2 (LATS2, Homo sapiens, UniProt Q9NRM7)	46
Transient receptor potential cation channel subfamily M member 6 (TRPM6, Homo sapiens, UniProt Q9BX84)	100

Sample 2 — Structure (SMILES): CC(C)(O)c1cncc(-c2nc3ccc(F)cc3n2C2CC2)c1; tested at: 1 µM
target	test	remaining binding [%]
cAMP-dependent protein kinase catalytic subunit beta (PRKACB, Homo sapiens, UniProt P22694)	cell-free assay, competition with immobilised ligand	77
Leucine-rich repeat serine/threonine-protein kinase 2 (LRRK2, Homo sapiens, UniProt Q5S007, G2019S)	cell-free assay, competition with immobilised ligand	100
Epidermal growth factor receptor (EGFR, Homo sapiens, UniProt P00533, G719C)	cell-free assay, competition with immobilised ligand	100
Serine/threonine-protein kinase 35 (STK35, Homo sapiens, UniProt Q8TDR2)	cell-free assay, competition with immobilised ligand	100
Tyrosine-protein kinase ABL1, phosphorylated (ABL1, Homo sapiens, UniProt P00519, F317I)	binding	100
cAMP-dependent protein kinase catalytic subunit alpha (PRKACA, Homo sapiens, UniProt P17612)	cell-free assay, competition with immobilised ligand	100

Sample 3 — SMILES: O=C(O)/C=C/c1cc(Br)c(Br)c(Br)c1Br; effect on: enzyme activity; action: inhibitor; tested at: 0.5 µM; reference: control
target	remaining activity [%]
Ephrin type-A receptor 3 (EPHA3, Homo sapiens, UniProt P29320)	92.3
Mitogen-activated protein kinase 3 (MAPK3, Homo sapiens, UniProt P27361)	110
Serine/threonine-protein kinase Nek1 (NEK1, Homo sapiens, UniProt Q96PY6)	85.4
Fibroblast growth factor receptor 3 (FGFR3, Homo sapiens, UniProt P22607)	94.9
Ribosomal protein S6 kinase alpha-2 (RPS6KA2, Homo sapiens, UniProt Q15349)	75.8
Mitogen-activated protein kinase kinase kinase 5 (MAP3K5, Homo sapiens, UniProt Q99683)	94
Activin receptor type-1B (ACVR1B, Homo sapiens, UniProt P36896)	103
Mitogen-activated protein kinase kinase kinase 14 (MAP3K14, Homo sapiens, UniProt Q99558)	100
Casein kinase I isoform gamma-3 (CSNK1G3, Homo sapiens, UniProt Q9Y6M4)	92.1
Macrophage-stimulating protein receptor (MST1R, Homo sapiens, UniProt Q04912)	87.1
Tyrosine-protein kinase Lck (LCK, Homo sapiens, UniProt P06239)	99.3
Serine/threonine-protein kinase TAO2 (TAOK2, Homo sapiens, UniProt Q9UL54)	88.9
Dual specificity mitogen-activated protein kinase kinase 2 (MAP2K2, Homo sapiens, UniProt P36507)	103

Sample 4 — effect on: kinase activity; action: inhibitor; tested at: 1 µM
SMILES: CC(C)S(=O)(=O)c1ccc2nccc(Nc3ccc4sc(C5CCCC5)nc4c3)c2c1.Cl
target	remaining activity [%]
Protein kinase C eta type (PRKCH, Homo sapiens, UniProt P24723)	84
Ephrin type-A receptor 7 (EPHA7, Homo sapiens, UniProt Q15375)	104
cGMP-dependent protein kinase 2 (PRKG2, Homo sapiens, UniProt Q13237)	119
RAF proto-oncogene serine/threonine-protein kinase (RAF1, Homo sapiens, UniProt P04049)	79
Calcium/calmodulin-dependent protein kinase type II subunit delta (CAMK2D, Homo sapiens, UniProt Q13557)	85

Repeated from above (sample 2):
target	test	remaining binding [%]
Epidermal growth factor receptor (EGFR, Homo sapiens, UniProt P00533, G719C)	cell-free assay, competition with immobilised ligand	100
Serine/threonine-protein kinase 35 (STK35, Homo sapiens, UniProt Q8TDR2)	cell-free assay, competition with immobilised ligand	100
Leucine-rich repeat serine/threonine-protein kinase 2 (LRRK2, Homo sapiens, UniProt Q5S007, G2019S)	cell-free assay, competition with immobilised ligand	100
Tyrosine-protein kinase ABL1, phosphorylated (ABL1, Homo sapiens, UniProt P00519, F317I)	binding	100
